Results pooled from the literature.
Each line is one published result; not all experiments were run side by side. “And” joins repeats or separate records; there may be more than shown. ± marks the error that the study gave.
HRH1: Histamine H1 receptor (HRH1, Homo sapiens, UniProt P35367)
Chain of UniProt P35367 (whole entry, looked up): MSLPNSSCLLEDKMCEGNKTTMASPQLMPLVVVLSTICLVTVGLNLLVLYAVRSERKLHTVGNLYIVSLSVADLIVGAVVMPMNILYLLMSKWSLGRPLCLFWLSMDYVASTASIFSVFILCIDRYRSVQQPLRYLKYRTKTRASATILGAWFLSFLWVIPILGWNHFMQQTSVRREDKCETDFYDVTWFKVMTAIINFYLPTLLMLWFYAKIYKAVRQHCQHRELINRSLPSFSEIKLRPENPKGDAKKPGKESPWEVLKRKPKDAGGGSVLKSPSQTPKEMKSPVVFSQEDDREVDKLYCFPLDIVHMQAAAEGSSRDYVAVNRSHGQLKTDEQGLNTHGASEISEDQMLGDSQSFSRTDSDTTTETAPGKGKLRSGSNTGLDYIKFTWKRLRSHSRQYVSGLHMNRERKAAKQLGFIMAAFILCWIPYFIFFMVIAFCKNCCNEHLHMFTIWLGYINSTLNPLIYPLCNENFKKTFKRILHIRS
MSP: Male-specific submandibular salivary gland protein (MSP, Mesocricetus auratus, UniProt Q9QXU1)
Chain of UniProt Q9QXU1 (whole entry, looked up): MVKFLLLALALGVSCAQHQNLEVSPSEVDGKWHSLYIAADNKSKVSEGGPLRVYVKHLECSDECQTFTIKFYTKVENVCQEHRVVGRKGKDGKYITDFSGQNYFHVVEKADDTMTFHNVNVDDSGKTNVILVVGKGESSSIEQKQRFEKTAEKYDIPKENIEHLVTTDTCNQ
Na(+)/H(+) exchange regulatory cofactor NHE-RF2 PDZ domain 2: Na(+)/H(+) exchange regulatory cofactor NHE-RF2, PDZ domain 2 (Homo sapiens, UniProt Q15599)
Chain of UniProt Q15599 (whole entry, looked up): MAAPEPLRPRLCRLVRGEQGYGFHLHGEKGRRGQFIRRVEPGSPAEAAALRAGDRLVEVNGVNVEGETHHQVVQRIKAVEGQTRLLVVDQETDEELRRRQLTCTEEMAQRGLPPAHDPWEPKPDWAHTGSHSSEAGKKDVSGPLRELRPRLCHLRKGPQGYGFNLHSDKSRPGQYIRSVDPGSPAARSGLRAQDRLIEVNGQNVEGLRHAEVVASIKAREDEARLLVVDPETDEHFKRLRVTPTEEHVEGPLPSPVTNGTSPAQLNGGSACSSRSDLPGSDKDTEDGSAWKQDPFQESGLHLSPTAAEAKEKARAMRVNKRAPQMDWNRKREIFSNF
DXR: 1-deoxy-D-xylulose 5-phosphate reductoisomerase, apicoplastic (DXR, Plasmodium falciparum, UniProt O96693)
Chain of UniProt P20813 (whole entry, looked up): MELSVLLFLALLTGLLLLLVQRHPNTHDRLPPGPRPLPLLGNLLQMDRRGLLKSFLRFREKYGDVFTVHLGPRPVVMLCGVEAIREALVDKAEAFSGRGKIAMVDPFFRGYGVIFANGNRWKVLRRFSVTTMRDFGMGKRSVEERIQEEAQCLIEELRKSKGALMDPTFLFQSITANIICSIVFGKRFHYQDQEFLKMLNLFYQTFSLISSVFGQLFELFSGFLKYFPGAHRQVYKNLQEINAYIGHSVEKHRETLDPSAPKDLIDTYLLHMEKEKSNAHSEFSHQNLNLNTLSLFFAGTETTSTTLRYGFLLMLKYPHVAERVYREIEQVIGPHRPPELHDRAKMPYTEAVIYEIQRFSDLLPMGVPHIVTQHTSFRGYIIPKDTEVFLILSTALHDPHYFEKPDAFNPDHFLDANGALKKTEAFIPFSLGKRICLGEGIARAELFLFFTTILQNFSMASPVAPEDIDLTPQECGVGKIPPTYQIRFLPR
Chain of UniProt O96693 (whole entry, looked up): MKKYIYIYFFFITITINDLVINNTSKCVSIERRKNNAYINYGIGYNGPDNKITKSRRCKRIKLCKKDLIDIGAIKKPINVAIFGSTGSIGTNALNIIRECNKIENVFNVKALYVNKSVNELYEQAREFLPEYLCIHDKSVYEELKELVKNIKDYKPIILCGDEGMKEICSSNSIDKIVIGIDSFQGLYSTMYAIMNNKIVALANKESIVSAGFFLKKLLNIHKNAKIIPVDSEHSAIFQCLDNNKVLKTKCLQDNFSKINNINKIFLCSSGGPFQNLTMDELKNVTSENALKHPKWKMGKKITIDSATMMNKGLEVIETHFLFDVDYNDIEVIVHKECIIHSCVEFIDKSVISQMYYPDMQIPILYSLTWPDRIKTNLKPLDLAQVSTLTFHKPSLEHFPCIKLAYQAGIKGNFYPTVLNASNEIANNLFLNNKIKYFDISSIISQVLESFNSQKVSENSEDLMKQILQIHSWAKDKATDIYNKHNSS
Chain of UniProt P40495 (whole entry, looked up): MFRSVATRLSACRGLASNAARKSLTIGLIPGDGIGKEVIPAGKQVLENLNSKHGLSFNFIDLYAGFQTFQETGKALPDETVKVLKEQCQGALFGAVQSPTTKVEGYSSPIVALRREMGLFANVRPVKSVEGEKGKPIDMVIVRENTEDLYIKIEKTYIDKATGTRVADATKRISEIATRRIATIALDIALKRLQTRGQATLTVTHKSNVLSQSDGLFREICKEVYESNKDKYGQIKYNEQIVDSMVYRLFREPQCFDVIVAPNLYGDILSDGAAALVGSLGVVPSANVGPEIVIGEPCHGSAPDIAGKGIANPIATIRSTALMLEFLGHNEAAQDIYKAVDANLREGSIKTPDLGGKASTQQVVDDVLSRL
Chain of UniProt Q03137 (whole entry, looked up): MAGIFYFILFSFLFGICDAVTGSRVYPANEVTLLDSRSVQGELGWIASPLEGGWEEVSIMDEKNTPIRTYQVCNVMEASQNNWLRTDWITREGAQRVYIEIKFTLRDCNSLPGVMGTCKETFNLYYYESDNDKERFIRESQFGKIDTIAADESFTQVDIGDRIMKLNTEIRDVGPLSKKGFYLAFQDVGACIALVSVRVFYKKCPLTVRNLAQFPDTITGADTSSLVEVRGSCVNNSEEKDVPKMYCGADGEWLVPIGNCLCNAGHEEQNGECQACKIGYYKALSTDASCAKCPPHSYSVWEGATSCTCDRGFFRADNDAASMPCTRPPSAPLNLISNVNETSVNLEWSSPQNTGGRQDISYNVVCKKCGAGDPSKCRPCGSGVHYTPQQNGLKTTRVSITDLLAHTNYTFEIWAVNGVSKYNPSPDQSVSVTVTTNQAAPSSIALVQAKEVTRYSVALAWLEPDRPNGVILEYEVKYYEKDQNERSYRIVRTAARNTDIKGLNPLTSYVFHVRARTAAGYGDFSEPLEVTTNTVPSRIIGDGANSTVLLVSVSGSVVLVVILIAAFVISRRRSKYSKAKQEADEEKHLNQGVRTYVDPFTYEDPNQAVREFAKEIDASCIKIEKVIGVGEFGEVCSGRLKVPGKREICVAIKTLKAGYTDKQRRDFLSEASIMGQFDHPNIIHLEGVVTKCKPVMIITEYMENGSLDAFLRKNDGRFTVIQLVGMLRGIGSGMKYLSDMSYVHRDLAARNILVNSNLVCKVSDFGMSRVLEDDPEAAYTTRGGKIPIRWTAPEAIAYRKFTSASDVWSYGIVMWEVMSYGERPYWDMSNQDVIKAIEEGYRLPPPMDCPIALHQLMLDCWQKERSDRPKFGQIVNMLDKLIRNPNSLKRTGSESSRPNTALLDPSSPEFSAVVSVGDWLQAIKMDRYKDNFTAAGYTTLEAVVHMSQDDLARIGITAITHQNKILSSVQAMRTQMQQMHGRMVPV
Chain of UniProt Q8NER1 (whole entry, looked up): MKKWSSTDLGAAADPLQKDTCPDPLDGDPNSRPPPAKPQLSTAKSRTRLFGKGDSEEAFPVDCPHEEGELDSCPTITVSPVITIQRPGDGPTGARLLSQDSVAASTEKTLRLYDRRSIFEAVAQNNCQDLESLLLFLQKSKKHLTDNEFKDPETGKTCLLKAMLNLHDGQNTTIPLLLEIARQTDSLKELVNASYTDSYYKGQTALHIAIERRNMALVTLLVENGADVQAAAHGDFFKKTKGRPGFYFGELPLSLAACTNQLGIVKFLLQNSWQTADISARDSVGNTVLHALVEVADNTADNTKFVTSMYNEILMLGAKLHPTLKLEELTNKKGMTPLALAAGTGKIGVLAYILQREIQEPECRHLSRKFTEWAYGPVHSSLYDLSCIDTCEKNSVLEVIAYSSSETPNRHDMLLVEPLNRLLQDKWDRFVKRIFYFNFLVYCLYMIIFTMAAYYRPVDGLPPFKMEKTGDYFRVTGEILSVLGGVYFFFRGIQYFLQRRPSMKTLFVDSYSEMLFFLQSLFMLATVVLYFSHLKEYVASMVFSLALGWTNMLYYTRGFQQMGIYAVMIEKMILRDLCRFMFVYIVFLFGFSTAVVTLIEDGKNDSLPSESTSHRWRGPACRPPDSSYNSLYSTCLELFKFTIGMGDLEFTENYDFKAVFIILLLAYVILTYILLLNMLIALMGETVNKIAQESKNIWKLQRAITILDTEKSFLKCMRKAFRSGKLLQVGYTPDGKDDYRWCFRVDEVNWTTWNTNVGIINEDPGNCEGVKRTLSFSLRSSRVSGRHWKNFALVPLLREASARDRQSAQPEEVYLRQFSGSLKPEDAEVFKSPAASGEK
Chain of UniProt P21462 (whole entry, looked up): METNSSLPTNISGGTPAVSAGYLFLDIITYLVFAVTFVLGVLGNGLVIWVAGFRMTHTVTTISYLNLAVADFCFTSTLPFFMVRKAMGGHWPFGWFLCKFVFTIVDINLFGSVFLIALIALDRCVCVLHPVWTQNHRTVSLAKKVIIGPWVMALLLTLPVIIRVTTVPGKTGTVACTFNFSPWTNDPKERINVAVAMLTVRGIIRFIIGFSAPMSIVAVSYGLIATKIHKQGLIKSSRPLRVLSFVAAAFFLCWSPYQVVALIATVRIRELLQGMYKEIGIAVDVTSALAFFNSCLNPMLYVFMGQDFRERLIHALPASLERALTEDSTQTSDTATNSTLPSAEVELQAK
Chain of UniProt P47900 (whole entry, looked up): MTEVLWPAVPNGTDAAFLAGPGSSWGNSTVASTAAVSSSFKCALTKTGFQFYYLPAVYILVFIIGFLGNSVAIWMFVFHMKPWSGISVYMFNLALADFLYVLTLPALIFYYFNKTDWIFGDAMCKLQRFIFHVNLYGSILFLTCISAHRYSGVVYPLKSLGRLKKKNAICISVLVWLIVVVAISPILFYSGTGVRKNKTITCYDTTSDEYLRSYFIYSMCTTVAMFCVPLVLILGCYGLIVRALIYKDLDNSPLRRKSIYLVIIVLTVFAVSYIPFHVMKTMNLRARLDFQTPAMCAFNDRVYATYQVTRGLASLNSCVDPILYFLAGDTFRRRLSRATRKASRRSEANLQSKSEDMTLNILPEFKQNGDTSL

Structure (SMILES) = NC(=S)NCCCc1c[nH]cn1; target = HRH1; assay = ligand displacement, radioligand; setting = cell membranes; Ki = > 100 µM
Structure (SMILES) = CCCCCCCCCC=O; target = MSP; assay = binding, fluorescence displacement; setting = with: 1-AMA 2 µM; Ki = 0.18 µM
Structure (SMILES) = CC(C)[C@H](NC(=O)[C@H](CCCNC(=N)N)NC(=O)[C@@H](NC(=O)[C@H](C)NC(=O)[C@H](Cc1ccccc1)NC(=O)[C@@H](N)CC(=O)O)[C@@H](C)O)C(=O)O; target = Na(+)/H(+) exchange regulatory cofactor NHE-RF2 PDZ domain 2; assay = fluorescence polarization competition; setting = with: FITC-labelled LPA2 peptide tracer; Ki = 69.3 ± 8.7 µM
Structure (SMILES) = CC(=O)N[C@@H]1[C@@H](O)[C@H](O[C@@H]2O[C@H](CO)[C@@H](O[C@@H]3O[C@H](CO)[C@@H](O[C@@H]4O[C@H](CO)[C@@H](O[C@@H]5O[C@H](CO)[C@@H](O)[C@H](O)[C@H]5NC(C)=O)[C@H](O)[C@H]4NC(C)=O)[C@H](O)[C@H]3NC(C)=O)[C@H](O)[C@H]2NC(C)=O)[C@@H](CO)O[C@H]1O; target = LysM receptor-like kinase (Brachypodium distachyon, UniProt A0A0Q3FRN3); assay = binding, competition crosslinking; system = membrane fractions; setting = YFP-tagged target, with: 10 nM biotinylated compound; Ki = ~0.01 µM
Structure (SMILES) = CNc1nc(C#CCCCCCc2cn(CCNC(C)=O)nn2)nc2c1ncn2[C@H]1C[C@H](OP(=O)(O)O)[C@]2(COP(=O)(O)O)C[C@H]12; target = P2Y purinoceptor 1 (P2RY1, Homo sapiens, UniProt P47900); assay = ligand displacement, radioligand; setting = cell membranes; Ki = 6.3 µM
Structure (SMILES) = CCCCC(=O)N(O)CCCP(=O)(O)O; target = DXR; assay = inhibitor, Lineweaver-Burk plot; setting = with: DXP varied, NADPH 150 µM; Ki = 0.86 µM
Structure (SMILES) = NS(=O)(=O)Cc1noc2ccccc12; target = Amine oxidase [flavin-containing] A (Maoa, Rattus norvegicus, UniProt P21396); assay = inhibitor; setting = up to 100 µM, with: kynuramine; Ki = no inhibition
Structure (SMILES) = CC(C)[C@H](NC(=O)[C@@H](NC(=O)[C@@H](NC(=O)[C@H](CO)NC(=O)[C@H](Cc1ccccc1)NC(=O)[C@@H](N)CC(=O)O)[C@@H](C)O)[C@@H](C)O)C(=O)O; target = Na(+)/H(+) exchange regulatory cofactor NHE-RF2 PDZ domain 2; assay = fluorescence polarization competition; setting = with: FITC-labelled LPA2 peptide tracer; Ki = 54.8 ± 3 µM
Structure (SMILES) = CCCN(CC[C@]1(O)C[C@@H](NC(=O)c2cccc(-c3noc(C)n3)c2)C1)[C@H]1CCc2nc(N)sc2C1 (relative stereo); target = dopamine D1-like receptor, rat; assay = radioligand binding; system = rat striatal membranes; setting = with: [3H]SCH23390; Ki = 15 ± 2.92 µM
Structure (SMILES) = CCCCCCCCOC(=O)NS(=O)(=O)Nc1ccc(-c2cc3ccccc3[nH]2)cc1OC; target = Polyunsaturated fatty acid lipoxygenase ALOX15 (Oryctolagus cuniculus, UniProt P12530); assay = arachidonic acid oxygenation, inhibitor; setting = with: arachidonic acid; Ki = 14.6 ± 3.14 µM
Structure (SMILES) = O=C(Cc1cccs1)N[C@@H](Cc1cccc(C(=O)O)c1)B(O)O; target = Beta-lactamase ADC-7 (Acinetobacter baumannii, UniProt Q6DRA1); assay = inhibitor; setting = 5 min preincubation, pH 7.4, room temperature, with: nitrocefin; Ki = 0.053 ± 0.004 µM
Structure (SMILES) = O=C(Oc1cc(O)cc2c1C[C@@H](OC(=O)c1cc(O)c(O)c(O)c1)[C@@H](c1cc(O)c(O)c(O)c1)O2)c1cc(O)c(O)c(O)c1; target = Ephrin type-A receptor 4 (Epha4, Mus musculus, UniProt Q03137); assay = ephrin-A5 binding, inhibitor, ELISA; setting = with: ephrin-A5; Ki = ~10 µM
Structure (SMILES) = O=C(O)c1cc(O)c(O)c(O)c1; target = dextransucrase Streptococcus mutans; assay = enzyme activity, inhibitor; setting = pH 6.0, 37 °C, mixed inhibition, with: sucrose 2 to 40 mM; Ki = 110 µM
Structure (SMILES) = NC(=O)C1=CN([C@@H]2O[C@H](COP(=O)(O)OP(=O)(O)OC[C@H]3O[C@@H](n4cnc5c(N)ncnc54)[C@H](O)[C@@H]3O)[C@@H](O)[C@H]2O)C=CC1; target = Homoisocitrate dehydrogenase, mitochondrial (Saccharomyces cerevisiae S288c, UniProt P40495); assay = enzyme activity, inhibitor; Ki = ~2700 µM
Structure (SMILES) = CC1(CCN2CCc3ccccc3C2)Cc2cc(Cl)ccc2C1=O (centres unmarked); target = D(3) dopamine receptor (DRD3, Homo sapiens, UniProt P35462); assay = binding, radioligand binding; setting = with: [3H]N-methylspiperone; Ki = 0.174 µM
Structure (SMILES) = CCCN(CCC1(O)CC(NC(=O)c2ccc(Cl)cc2)C1)[C@H]1CCc2nc(N)sc2C1 (stereo in doubt); target = dopamine D1-like receptor, rat; assay = radioligand binding; system = rat striatal membranes; setting = with: [3H]SCH23390; Ki = 15.1 ± 0.78 µM
Structure (SMILES) = CC(=O)N(CCCP(=O)(O)O)OCc1ccc(-c2ccccc2)cc1; target = DXR; assay = inhibitor; setting = versus NADPH, with: NADPH varied 6-30 µM, DXP 144 µM; Ki = 0.44 µM
Structure (SMILES) = N=C(N)NCCCCCCCCCCCCNC(=N)NCCCc1c[nH]cn1; target = HRH1; assay = ligand displacement, radioligand; setting = cell membranes; Ki = 0.257 µM
Structure (SMILES) = CCCN(CCC1(O)CC(NS(=O)(=O)c2ccc(F)c(F)c2)C1)[C@H]1CCc2nc(N)sc2C1 (stereo in doubt); target = dopamine D1-like receptor, rat; assay = radioligand binding; system = rat striatal membranes; setting = with: [3H]SCH23390; Ki = 76 ± 6.81 µM
Structure (SMILES) = CCCCCCOc1nc(C(F)(F)F)ccc1CNC(=O)[C@H](C)c1ccc(NS(C)(=O)=O)c(F)c1; target = Transient receptor potential cation channel subfamily V member 1 (TRPV1, Homo sapiens, UniProt Q8NER1); assay = calcium influx, antagonist, FLIPR; system = CHO cells expressing human TRPV1; setting = with: capsaicin; Ki = 1 to 10 µM
Structure (SMILES) = O=C(O)[C@H]1NCC[C@@H]1[C@H](C(=O)O)c1ccccc1; target = NMDA receptor, rat; assay = binding; system = cortical synaptosomes; setting = with: [3H]-CGP 39653; Ki = > 100 µM
Structure (SMILES) = CN[C@H]1CC[C@@H](c2ccc(Cl)c(Cl)c2)c2ccccc21; target = Cytochrome P450 2B6 (CYP2B6, Homo sapiens, UniProt P20813); assay = enzyme activity, competitive inhibitor; system = reconstituted system; setting = 5 min, pH 7.4, with: 7-MFC; Ki = 0.38 µM and 0.22 µM and 0.3 µM
Structure (SMILES) = CC(C)[C@H](NC(=O)[C@H](CCCNC(=N)N)NC(=O)[C@@H](NC(=O)[C@H](CO)NC(=O)[C@H](Cc1ccccc1)NC(=O)[C@@H](N)CC(=O)O)[C@@H](C)O)C(=O)O; target = Na(+)/H(+) exchange regulatory cofactor NHE-RF2 PDZ domain 2; assay = fluorescence polarization competition; setting = with: FITC-labelled LPA2 peptide tracer; Ki = 52.1 ± 5.3 µM
Structure (SMILES) = COc1cccc(/C=N/Nc2cc(C)nc3cc4c(cc23)OCO4)c1; target = DNA repair nuclease/redox regulator APEX1 (APEX1, Homo sapiens, UniProt P27695); assay = enzyme activity, inhibitor; Ki = 0.22 µM
Structure (SMILES) = CCCN(CCC1(O)CC(NC(=O)c2ccccc2)C1)[C@H]1CCc2nc(N)sc2C1 (stereo in doubt); target = dopamine D1-like receptor, rat; assay = radioligand binding; system = rat striatal membranes; setting = with: [3H]SCH23390; Ki = 1.97 ± 0.179 µM
Structure (SMILES) = C=CC(C)CCCC(C)(C)O (centres unmarked); target = MSP; assay = binding, fluorescence displacement; setting = with: 1-AMA 2 µM; Ki = 2.1 µM
Structure (SMILES) = O=C(O)c1c(Cl)c(Cl)c(Cl)c(Cl)c1-c1c2cc(I)c(=O)c(I)c-2oc2c(I)c(O)c(I)cc12; target = Dual specificity protein phosphatase 5 (Homo sapiens, UniProt Q16690); assay = enzyme activity, noncompetitive inhibitor; setting = 15 min, incandescent light; Ki = 0.54 ± 0.03 µM
Structure (SMILES) = COCCCOc1ccnc(C[S+]([O-])c2nc3ccccc3[nH]2)c1C (centres unmarked); target = Carboxy-terminal domain RNA polymerase II polypeptide A small phosphatase 1 (CTDSP1, Homo sapiens, UniProt Q9GZU7); assay = phosphatase activity, inhibitor; setting = with: p-nitrophenyl phosphate; Ki = 5 ± 2 µM
Structure (SMILES) = O=C(O)C(CCO)[C@@H]1CCN[C@H]1C(=O)O (relative stereo); target = NMDA receptor, rat; assay = binding; system = cortical synaptosomes; setting = with: [3H]-CGP 39653; Ki = 61 µM
Structure (SMILES) = CCCCCCN1C(=O)C(O)=C(C(=O)c2ccccc2)C1c1ccc(O)c(OC)c1 (centres unmarked); target = fMet-Leu-Phe receptor (FPR1, Homo sapiens, UniProt P21462); assay = ligand displacement in cells; Ki = 3 µM
Structure (SMILES) = CC[C@@H](C(=O)O)[C@H]1CCN[C@@H]1C(=O)O; target = NMDA receptor, rat; assay = binding; system = cortical synaptosomes; setting = with: [3H]-CGP 39653; Ki = > 100 µM
Structure (SMILES) = Nc1nc(Cl)nc2c1ncn2[C@@H]1O[C@H](CO)[C@@H](O)[C@@H]1F; target = Adenosine receptor A1 (ADORA1, Homo sapiens, UniProt P30542); assay = ligand displacement, radioligand; setting = cell membranes; Ki = 0.274 µM

Repeated from above:
Structure (SMILES) = CCCCCCOc1nc(C(F)(F)F)ccc1CNC(=O)[C@H](C)c1ccc(NS(C)(=O)=O)c(F)c1; target = Transient receptor potential cation channel subfamily V member 1 (TRPV1, Homo sapiens, UniProt Q8NER1); assay = calcium influx, antagonist, FLIPR; system = CHO cells expressing human TRPV1; setting = with: capsaicin; Ki = 1 to 10 µM
Structure (SMILES) = O=C(O)[C@H]1NCC[C@@H]1[C@H](C(=O)O)c1ccccc1; target = NMDA receptor, rat; assay = binding; system = cortical synaptosomes; setting = with: [3H]-CGP 39653; Ki = > 100 µM
Structure (SMILES) = CN[C@H]1CC[C@@H](c2ccc(Cl)c(Cl)c2)c2ccccc21; target = Cytochrome P450 2B6 (CYP2B6, Homo sapiens, UniProt P20813); assay = enzyme activity, competitive inhibitor; system = reconstituted system; setting = 5 min, pH 7.4, with: 7-MFC; Ki = 0.38 µM and 0.22 µM and 0.3 µM
Structure (SMILES) = CC(C)[C@H](NC(=O)[C@H](CCCNC(=N)N)NC(=O)[C@@H](NC(=O)[C@H](CO)NC(=O)[C@H](Cc1ccccc1)NC(=O)[C@@H](N)CC(=O)O)[C@@H](C)O)C(=O)O; target = Na(+)/H(+) exchange regulatory cofactor NHE-RF2 PDZ domain 2; assay = fluorescence polarization competition; setting = with: FITC-labelled LPA2 peptide tracer; Ki = 52.1 ± 5.3 µM
Structure (SMILES) = COc1cccc(/C=N/Nc2cc(C)nc3cc4c(cc23)OCO4)c1; target = DNA repair nuclease/redox regulator APEX1 (APEX1, Homo sapiens, UniProt P27695); assay = enzyme activity, inhibitor; Ki = 0.22 µM
